Results from different studies.
Every numbered part comes from another study and shows a few of its results, in no order. Positions count from the first letter of the parent shown.

Set 1 — method: protein binding microarray; molecule type: double-stranded DNA, one strand shown; sample: in vitro; tested at: not given; reference: not given; reading: higher = stronger binding
Target: Histone acetyltransferase KAT6A, both winged helices, GST fusion (KAT6A, Homo sapiens, UniProt Q92794, residues 1-181)
Setting: 8-mer, flanks averaged, mean of 2 arrays, mostly near background
Residues (chain): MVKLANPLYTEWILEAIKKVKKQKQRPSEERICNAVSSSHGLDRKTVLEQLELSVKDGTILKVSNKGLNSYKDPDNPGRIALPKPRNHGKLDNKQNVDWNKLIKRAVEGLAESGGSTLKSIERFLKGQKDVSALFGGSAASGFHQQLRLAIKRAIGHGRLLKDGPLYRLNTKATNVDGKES
| Sequence | E-score |
| --- | --- |
| AGTGCGAA | -0.014 |
| ATCATCGG | 0.15 |
| ACGGCAGT | 0.196 |
| CGCCTTAA | 0.0367 |
| ACCGGTAG | 0.189 |
| AAAAGGCA | -0.166 |
| GTCAGCAA | -0.081 |
| GAAATCAA | 0.071 |

Set 2 — method: RNAcompete; molecule type: RNA; sample: in vitro; tested at: 20 nM; setting: 7-mer, probes averaged, single round; reference: mean of 7-mers; reading: higher = stronger binding
Target: PABPC1L2, full length, GST fusion (mouse, UniProt A0ABA7IW68)
Target sequence (chain): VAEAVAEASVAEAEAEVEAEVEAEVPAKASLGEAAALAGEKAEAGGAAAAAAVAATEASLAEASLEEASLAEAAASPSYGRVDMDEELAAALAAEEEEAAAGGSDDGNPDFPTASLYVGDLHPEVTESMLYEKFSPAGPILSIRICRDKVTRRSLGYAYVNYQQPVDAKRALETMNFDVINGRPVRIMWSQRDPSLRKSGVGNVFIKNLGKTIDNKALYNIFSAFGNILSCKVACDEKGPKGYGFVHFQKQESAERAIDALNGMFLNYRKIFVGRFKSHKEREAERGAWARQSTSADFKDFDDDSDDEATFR
| Sequence | 7-mer Z-score |
| --- | --- |
| CGUUAAU | -0.298 |
| AAUCGAG | 0.267 |
| GGAUCUU | 0.017 |
| UUGCGGC | -0.24 |
| CCGAAGG | -0.108 |
| UGAUUAG | -0.121 |
| CCGGCGU | -0.313 |
| CUAACCU | -0.2 |

Mixed results
P1: PafA, mature enzyme, eGFP fusion (Elizabethkingia meningoseptica, UniProt Q9KJX5); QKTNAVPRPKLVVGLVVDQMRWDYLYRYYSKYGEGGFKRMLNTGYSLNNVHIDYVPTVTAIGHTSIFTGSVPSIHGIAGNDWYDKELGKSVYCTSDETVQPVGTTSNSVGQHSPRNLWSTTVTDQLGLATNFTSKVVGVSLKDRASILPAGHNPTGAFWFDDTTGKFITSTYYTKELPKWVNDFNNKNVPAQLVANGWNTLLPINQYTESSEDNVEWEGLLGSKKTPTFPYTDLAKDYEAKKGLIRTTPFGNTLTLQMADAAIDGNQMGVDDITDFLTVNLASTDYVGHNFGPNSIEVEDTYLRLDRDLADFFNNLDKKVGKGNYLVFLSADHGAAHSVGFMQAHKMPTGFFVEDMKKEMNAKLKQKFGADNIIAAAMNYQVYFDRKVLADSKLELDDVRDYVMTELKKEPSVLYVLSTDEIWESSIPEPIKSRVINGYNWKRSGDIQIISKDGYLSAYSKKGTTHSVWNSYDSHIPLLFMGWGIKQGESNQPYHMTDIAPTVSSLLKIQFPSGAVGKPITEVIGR
P2: viral docking peptide; TSVRRALFTGGSD; partner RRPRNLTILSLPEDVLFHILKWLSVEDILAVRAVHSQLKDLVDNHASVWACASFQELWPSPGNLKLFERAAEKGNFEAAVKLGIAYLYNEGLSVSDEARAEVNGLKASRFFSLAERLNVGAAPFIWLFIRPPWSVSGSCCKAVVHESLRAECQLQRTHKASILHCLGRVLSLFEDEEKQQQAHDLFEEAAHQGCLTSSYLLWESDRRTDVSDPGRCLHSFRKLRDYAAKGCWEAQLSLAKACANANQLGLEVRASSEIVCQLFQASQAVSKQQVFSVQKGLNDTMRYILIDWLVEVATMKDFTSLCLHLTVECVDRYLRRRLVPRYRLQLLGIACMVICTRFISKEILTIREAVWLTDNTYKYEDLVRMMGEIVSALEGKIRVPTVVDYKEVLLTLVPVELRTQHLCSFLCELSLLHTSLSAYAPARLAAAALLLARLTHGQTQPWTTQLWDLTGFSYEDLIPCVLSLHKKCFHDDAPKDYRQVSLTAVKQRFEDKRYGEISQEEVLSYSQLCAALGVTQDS
| Substance | target | test | system | conditions | how to read | endpoint | value |
| --- | --- | --- | --- | --- | --- | --- | --- |
| P1 G292V | inorganic phosphate, free oxyanion | microfluidic competitive inhibition | in vitro, cell-free expressed | not given, derived from inhibition constants, unchanged parent 615000 nM | lower = stronger binding | phosphate dissociation constant | 534 µM |
| P2 R5L | CCNF, cyclin fold, Cln2 fusion (human) | yeast growth competition, sequencing | yeast | strong parent motif | reference: not given, higher = stronger binding | normalised enrichment score | 0.379 |
| P1 Y83G | inorganic phosphate, free oxyanion | microfluidic competitive inhibition | in vitro, cell-free expressed | not given, derived from inhibition constants, unchanged parent 615000 nM | lower = stronger binding | phosphate dissociation constant | 384 µM |
| PhoQ, residues 284 288 289 292 302 303 SVTLVV | PhoP, residues 12 14 15 18 19 SYFRT (Escherichia coli, UniProt P23836) | Sort-seq, item: YFP reporter | E. coli | PhoQ-PhoP variant library, with: 10 µM Mg2+ | reference: high Mg2+ state, higher = stronger signaling | fold induction | 0.985 |
| P1 Q192V | inorganic phosphate, free oxyanion | microfluidic competitive inhibition | in vitro, cell-free expressed | not given, derived from inhibition constants, unchanged parent 615000 nM | lower = stronger binding | phosphate dissociation constant | 641 µM |
